{"data": "Assay results collected from several papers", "method": "steady-state kinetics", "B1": "putA N641A (Bradyrhizobium diazoefficiens, UniProt Q89E26); chain MPNIPPPFTAPYAPDDAEIAARLLPASHLSPPQEARIHRTATRLIEAIRKRDDRLGGVEDMLREFALSTKEGLALMVLAEALLRVPDARTADQFIEDKLGEGDFIHHETKSTAFLVNASAWALGLSARVIQPGETPDGTIGRLVKRLGAPAVRTATRQAMRLMGNHFVLGETIEQALERGKPRSGQKTRYSFDMLGEGARTAADARRYFDAYASAIETIGKAAGNHALPDRPGISVKLSALHPRFEAISRARVMVELVPQLLDLAQRAKAHDLNFTVDAEEADRLELSLDVIAATLADPSLKGWDGFGLAIQAYQKRASAVIDYVDALARAHDRKLMVRLVKGAYWDTEIKRAQERGLDGYPVFTRKAMTDLNYVACASKLLALRPRIFPQFATHNALTVATVLEMAEGSSGFEFQRLHGMGEALYEQLAKDHADIAYRTYAPVGSHRDLLAYLVRRLLENGANSSFVAQAADYRVPVPALLQRPADAIVRPQAAAHPRIPLPCDLFAPERRNSRGVEFGARTALDQLLTDVKAETGDLKPIADATPDQAHAAVAAARAGFAGWSRTPAGIRAAALEQAAHLLESRSAHFIALLQREGGKTLDDALSELREAADFCRYYAAQGRKLFGSETAMPGPTGESAALTMRGRGVFVAISPWNFPLAIFLGQVTAALMAGNSVVAKPAEQTPRIAREAVALLHEAGIPKSALYLVTGDGRIGAALTAHPDIAGVVFTGSTEVARSINRALAAKDGPIVPLIAETGGINAMIADATALPEQVADDVVTSAFRSAGQRCSALRLLFVQEDVADRMIEMVAGAARELKIGDPSDVATHVGPVIDVEAKQRLDAHIARMKTEARLHFAGPAPEGCFVAPHIFELTEAGQLTEEVFGPILHVVRYRPENLERVLRAIERTGYGLTLGVHSRIDDSIEAIIDRVQVGNIYVNRNMIGAVVGVQPFGGNGLSGTGPKAGGPHYLARFATEQTVTINTAAAGGNAALLAGEE", "B2": "PhnA (Sinorhizobium meliloti, UniProt Q92UV8); chain MNQMSKISVTVNGRRYPWPRVPAIAVCLDGCEPAYLDAAIDAGLMPALKRIKERGAVRLAHSVIPSFTNPNNLSIATGSPPAVHGICGNYLYEPSTGEEVMMNDPKFLRAPTIFQAFYDAGARVAVVTAKDKLRALLGKGLRFDEGRAVCFSSEKSDKATRAEHGIDNASAWLGRPVPEVYSAALSEFVFAAGVKLLREFRPDIMYLTTTDYVQHKYAPGVPEANSFYEMFDRYLAELDGLGAAIVVTADHGMKPKHKADGSPDVIYVQDLLDEWLGKDAARVILPITDPYVVHHGALGSFATAYLPDGCDRSEIMARLKAIQGVDVVLGREEACRRFELPEDRIGDIVLVSSENKTLGTSEHRHDLAALDEPLRSHGGLTEQEVPFIVNRVLPELPNAPRLRNFDAFFYAVTAAAEAGAEGGL", "B3": "CPT1 (Solanum lycopersicum, UniProt C1K5M2); chain SLNLQTEKLCYEDNDNDLDEELMPKHIALIMDGNRRWAKDKGLEVYEGHKHIIPKLKEICDISSKLGIQIITAFAFSTENWKRSKEEVDFLLQMFEEIYDEFSRSGVRVSIIGCKSDLPMTLQKCIALTEETTKGNKGLHLVIALNYGGYYDILQATKSIVNKAMNGLLDVEDINKNLFDQELESKCPNPDLLIRTGGEQRVSNFLLWQLAYTEFYFTNTLFPDFGEEDLKEAIMNFQQRHRRFGGHTY", "B4": "ycjQ (Escherichia coli, UniProt P76043); chain MKKLVATAPRVAALVEYEDRAILANEVKIRVRFGAPKHGTEVVDFRAASPFIDEDFNGEWQMFTPRPADAPRGIEFGKFQLGNMVVGDIIECGSDVTDYAVGDSVCGYGPLSETVIINAVNNYKLRKMPQGSSWKNAVCYDPAQFAMSGVRDANVRVGDFVVVVGLGAIGQIAIQLAKRAGASVVIGVDPIAHRCDIARRHGADFCLNPIGTDVGKEIKTLTGKQGADVIIETSGYADALQSALRGLAYGGTISYVAFAKPFAEGFNLGREAHFNNAKIVFSRACSEPNPDYPRWSRKRIEETCWELLMNGYLNCEDLIDPVVTFANSPESYMQYVDQHPEQSIKMGVTF", "B5": "axeA (Thermotoga maritima, UniProt Q9WXT2); chain MAFFDLPLEELKKYRPERYEEKDFDEFWEETLAESEKFPLDPVFERMESHLKTVEAYDVTFSGYRGQRIKGWLLVPKLEEEKLPCVVQYIGYNGGRGFPHDWLFWPSMGYICFVMDTRGQGSGWLKGDTPDYPEGPVDPQYPGFMTRGILDPRTYYYRRVFTDAVRAVEAAASFPQVDQERIVIAGGSQGGGIALAVSALSKKAKALLCDVPFLCHFRRAVQLVDTHPYAEITNFLKTHRDKEEIVFRTLSYFDGVNFAARAKIPALFSVGLMDNICPPSTVFAAYNYYAGPKEIRIYPYNNHEGGGSFQAVEQVKFLKKLFEKG", "B6": "MCAT R178G (Homo sapiens, UniProt Q8IVS2); chain GQGSQVVGMGRGLLNYPRVRELYAAARRVLGYDLLELSLHGPQETLDRTVHCQPAIFVASLAAVEKLHHLQPSVIENCVAAAGFSVGEFAALVFAGAMEFAEGLYAVKIGAEAMQEASEAVPSGMLSVLGQPQSKFNFACLEAREHCKSLGIENPVCEVSNYLFPDCRVISGHQEALRFLQKNSSKFHFRRTRMLPVSGAFHTRLMEPAVEPLTQALKAVDIKKPLVSVYSNVHAHRYRHPGHIHKLLAQQLVSPVKWEQTMHAIYERKKGRGFPQTFEVGPGRQLGAILKSCNMQAWKSYSAVDVL", "B7": "BaiA1 (Clostridium scindens, UniProt P07914); chain MKLVQDKITIITGGTRGIGFAAAKLFIENGAKVSIFGETQEEVDTALAQLKELYPEEEVLGFAPDLTSRDAVMAAVGTVAQKYGRLDVMINNAGITMNSVFSRVSEEDFKNIMDINVNGVFNGAWSAYQCMKDAKQGVIINTASVTGIYGSLSGIGYPTSKAGVIGLTHGLGREIIRKNIRVVGVAPGVVDTDMTKGLPPEILEDYLKTLPMKRMLKPEEIANVYLFLASDLASGITATTISVDGAYRP", "B8": "LigI D246A (Sphingobium sp. SYK-6, UniProt O87170); chain TNDERILSWNETPSKPRYTPPPGAIDAHCHVFGPMAQFPFSPKAKYLPRDAGPDMLFALRDHLGFARNVIVQASCHGTDNAATLDAIARAQGKARGIAVVDPAIDEAELAALHEGGMRGIRFNFLKRLVDDAPKDKFLEVAGRLPAGWHVVIYFEADILEELRPFMDAIPVPIVIDHMGRPDVRQGPDGADMKAFRRLLDSREDIWFKATCPDRLDPAGPPWDDFARSVAPLVADYADRVIWGTAWPHPNMQDAIPDDGLVVDMIPRIAPTPELQHKMLVTNPMRLYWSEEM", "B9": "GTPBP3 A322P (Homo sapiens, UniProt Q969Y2); chain TRRSSGAPAPGSGATIFALSSGQGRCGIAVIRTSGPASGHALRILTAPRDLPLARHASLRLLSDPRSGEPLDRALVLWFPGPQSFTGEDCVEFHVHGGPAVVSGVLQALGSVPGLRPAEAGEFTRRAFANGKLNLTEVEGLADLIHAETEAQRRQALRQLDGELGHLCRGWAETLTKALAHVEAYIDFGEDDNLEEGVLEQADIEVRALQVALGAHLRDARRGQRLRSGVHVVVTGPPNAGKSSLVNLLSRKPVSIVSPEPGTTRDVLETPVDLAGFPVLLSDTAGLREGVGPVEQEGVRRPRERLEQADLILAMLDASDLASPSSCNFLATVVASVGAQSPSDSSQRLLLVLNKSDLLSPEGPGPGPDLPPHLLLSCLTGEGLDGLLEALRKELAAVCGDPSTDPPLLTRARHQHHLQGCLDALGHYKQSKDLALAAEALRVARGHLTRLTGGGGTEEILDIIFQDFCVGK", "B10": "enzyme (Salmonella enterica, UniProt P31570); chain MSDERYQQRQQKVKDRVDARVAQAQEERGIIIVFTGNGKGKTTAAFGTAARAVGHGKNVGVVQFIKGTWPNGERNLLEPHGVEFQVMATGFTWETQNREADTAACMAVWQHGKRMLADPLLDMVVLDELTYMVAYDYLPLEEVISALNARPGHQTVIITGRGCHRDILDLADTVSELRPVKHAFDAGVKAQMGIDY", "note": "± marks the error that the study gave.", "chain of UniProt Q9UNA4 (whole entry, looked up)": "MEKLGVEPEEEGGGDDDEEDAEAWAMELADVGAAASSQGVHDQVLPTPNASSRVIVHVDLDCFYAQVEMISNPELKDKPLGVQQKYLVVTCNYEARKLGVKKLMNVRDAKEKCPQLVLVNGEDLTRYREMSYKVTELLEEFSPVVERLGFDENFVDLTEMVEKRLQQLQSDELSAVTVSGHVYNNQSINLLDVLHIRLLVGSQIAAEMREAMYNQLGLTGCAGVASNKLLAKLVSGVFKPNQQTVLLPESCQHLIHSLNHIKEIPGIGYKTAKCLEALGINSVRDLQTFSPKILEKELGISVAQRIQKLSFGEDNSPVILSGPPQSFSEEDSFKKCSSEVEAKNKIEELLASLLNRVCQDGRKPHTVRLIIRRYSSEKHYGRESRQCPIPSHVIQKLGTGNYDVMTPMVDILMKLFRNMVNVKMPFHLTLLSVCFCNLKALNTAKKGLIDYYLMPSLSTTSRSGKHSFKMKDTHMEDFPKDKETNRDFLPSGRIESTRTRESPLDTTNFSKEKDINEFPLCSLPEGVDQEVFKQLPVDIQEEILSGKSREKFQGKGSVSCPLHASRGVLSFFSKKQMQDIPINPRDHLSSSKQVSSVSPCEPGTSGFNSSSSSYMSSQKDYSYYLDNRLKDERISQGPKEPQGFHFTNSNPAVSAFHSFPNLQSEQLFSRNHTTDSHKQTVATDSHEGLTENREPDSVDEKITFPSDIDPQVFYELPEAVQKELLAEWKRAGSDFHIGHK", "chain of UniProt P14780 (whole entry, looked up)": "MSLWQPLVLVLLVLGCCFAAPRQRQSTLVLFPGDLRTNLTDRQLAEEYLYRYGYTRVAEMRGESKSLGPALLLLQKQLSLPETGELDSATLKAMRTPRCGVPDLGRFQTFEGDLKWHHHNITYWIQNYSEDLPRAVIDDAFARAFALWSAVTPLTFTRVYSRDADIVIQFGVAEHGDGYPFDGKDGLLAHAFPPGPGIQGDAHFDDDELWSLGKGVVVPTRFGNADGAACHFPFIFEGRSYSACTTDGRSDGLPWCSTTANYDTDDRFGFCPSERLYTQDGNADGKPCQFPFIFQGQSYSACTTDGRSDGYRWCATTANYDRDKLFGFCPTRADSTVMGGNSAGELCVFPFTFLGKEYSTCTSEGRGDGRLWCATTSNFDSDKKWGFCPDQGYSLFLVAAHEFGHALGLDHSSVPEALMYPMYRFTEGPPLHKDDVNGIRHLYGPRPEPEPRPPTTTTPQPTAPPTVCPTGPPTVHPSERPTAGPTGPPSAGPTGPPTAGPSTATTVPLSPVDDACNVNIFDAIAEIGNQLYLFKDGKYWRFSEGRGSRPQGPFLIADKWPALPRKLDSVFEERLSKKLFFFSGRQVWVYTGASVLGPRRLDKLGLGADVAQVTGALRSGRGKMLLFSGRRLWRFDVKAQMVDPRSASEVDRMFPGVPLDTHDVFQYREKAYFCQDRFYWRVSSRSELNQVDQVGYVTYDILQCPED"}
{"Substance": "B1 (putA N641A)", "substrate": "O=C(O)[C@@H]1CCCN1", "pH": "pH 8", "temperature": "23 °C", "kcat [s⁻¹]": "2.5 ± 0.4"}
{"Substance": "B2 (PhnA)", "substrate": "O=C(O)CP(=O)(O)O", "pH": "pH 7.5", "temperature": "30 °C", "together with": "Zn2+ 10 µM", "kcat [s⁻¹]": "1.16 ± 0.03"}
{"Substance": "B3 (CPT1)", "substrate": "C=C(C)CCO[P@@](=O)(O)OP(=O)(O)O", "kcat [s⁻¹]": "0.111 ± 0.023"}
{"Substance": "MMP9 (Homo sapiens, UniProt P14780)", "substrate": "CC(=O)NCC(=O)N1CCC[C@H]1C(=O)N[C@@H](CC(C)C)C(=O)NCC(=O)N[C@@H](CC(C)C)C(=O)N[C@@H](CO)C(=O)N[C@@H](CC(C)C)C(=O)NCC(=O)N[C@@H](CCCCN)C(N)=O", "kcat [s⁻¹]": 46.7}
{"Substance": "B4 (ycjQ)", "substrate": "CO[C@@H]1O[C@H](CO)[C@H](O)C(=O)[C@H]1O", "pH": "pH 7", "temperature": "30 °C", "together with": "NADH 0.3 mM, MnCl2 0.5 mM", "kcat [s⁻¹]": "7 ± 0.2"}
{"Substance": "B5 (axeA)", "substrate": "CC(=O)Oc1ccc([N+](=O)[O-])cc1", "pH": "pH 6.5", "temperature": "50 °C", "notes": "temperature uncertain, apparent", "kcat [s⁻¹]": 69.9}
{"Substance": "B6 (MCAT R178G)", "substrate": "CC(=O)SCCNC(=O)CCNC(=O)[C@H](O)C(C)(C)COP(=O)(O)OP(=O)(O)OC[C@H]1O[C@@H](n2cnc3c(N)ncnc32)[C@H](O)[C@@H]1OP(=O)(O)O", "pH": "pH 6.8", "temperature": "20 °C", "notes": "labelled substrate", "together with": "holo-ACP 20 µM", "kcat [s⁻¹]": "0.00667 ± 0.000833"}
{"Substance": "B7 (BaiA1)", "substrate": "C[C@H](CCC(=O)SCCNC(=O)CCNC(=O)[C@H](O)C(C)(C)COP(=O)(O)OP(=O)(O)OC[C@H]1O[C@@H](n2cnc3c(N)ncnc32)[C@H](O)[C@@H]1OP(=O)(O)O)[C@H]1CC[C@H]2[C@@H]3[C@H](O)C[C@@H]4C[C@H](O)CC[C@]4(C)[C@H]3CC[C@]12C", "pH": "pH 8.7", "temperature": "37 °C", "together with": "NAD+", "kcat [s⁻¹]": 0.817}
{"Substance": "B8 (LigI D246A)", "substrate": "O=C(O)c1cc(C(=O)O)oc(=O)c1", "pH": "pH 8.25", "temperature": "30 °C", "kcat [s⁻¹]": "0.0013 ± 0.0001"}
{"Substance": "B9 (GTPBP3 A322P)", "substrate": "Nc1nc2c(ncn2[C@@H]2O[C@H](COP(=O)(O)OP(=O)(O)OP(=O)(O)O)[C@@H](O)[C@H]2O)c(=O)[nH]1", "pH": "pH 8", "temperature": "37 °C", "notes": "KCl 300 mM", "kcat [s⁻¹]": "0.0075 ± 0.000833"}
{"Substance": "B10 (enzyme)", "substrate": "Nc1ncnc2c1ncn2[C@@H]1O[C@H](COP(=O)(O)OP(=O)(O)OP(=O)(O)O)[C@@H](O)[C@H]1O", "pH": "pH 8", "temperature": "37 °C", "kcat [s⁻¹]": "0.08 ± 0.01"}
{"Substance": "POLI (Homo sapiens, UniProt Q9UNA4)", "substrate": "Cc1cn([C@H]2C[C@H](O)[C@@H](COP(=O)(O)OP(=O)(O)OP(=O)(O)O)O2)c(=O)[nH]c1=O", "pH": "pH 8", "temperature": "37 °C", "notes": "misinsertion opposite dT", "together with": "Mg2+", "kcat [s⁻¹]": "0.00172 ± 5e-05"}
